Experimental data from different studies.
Numbered parts are unrelated; each lists some results of a single study. Positions count from the first letter of the parent shown.

Series 1 — method: universal PBM; form: double-stranded DNA, one strand shown; medium: in vitro; tested at: not given; direction: higher = stronger binding
Target: Sal-like protein 4, full length isoform B (SALL4, Homo sapiens, UniProt Q9UJQ4-2, residues 1-616)
Setting: 8-mer, flanks averaged, mean of replicates
Construct (chain): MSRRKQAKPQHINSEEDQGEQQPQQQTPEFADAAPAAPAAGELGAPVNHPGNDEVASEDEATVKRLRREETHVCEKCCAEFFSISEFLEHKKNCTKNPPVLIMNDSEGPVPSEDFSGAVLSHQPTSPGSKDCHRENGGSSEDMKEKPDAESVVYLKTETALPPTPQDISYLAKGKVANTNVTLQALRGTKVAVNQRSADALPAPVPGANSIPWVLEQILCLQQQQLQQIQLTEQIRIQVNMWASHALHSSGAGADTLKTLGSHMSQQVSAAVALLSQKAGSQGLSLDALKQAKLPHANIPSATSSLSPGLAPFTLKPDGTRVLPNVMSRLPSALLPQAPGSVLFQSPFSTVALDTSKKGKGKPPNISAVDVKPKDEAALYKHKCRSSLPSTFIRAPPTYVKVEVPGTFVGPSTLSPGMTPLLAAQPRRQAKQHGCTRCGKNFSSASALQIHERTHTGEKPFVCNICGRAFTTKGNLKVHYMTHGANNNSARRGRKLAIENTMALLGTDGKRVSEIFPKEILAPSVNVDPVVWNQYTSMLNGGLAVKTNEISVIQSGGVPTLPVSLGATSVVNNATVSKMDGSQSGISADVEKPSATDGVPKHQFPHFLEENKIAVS
Oligonucleotide	E-score
AAATTCGC	0.0808
CATTACGA	0.0677
GTTCCAGA	-0.0762
AACGGCTG	-0.127
GCTCGCTA	-0.222
AACGGCTT	-0.123
CAACCATG	-0.0437
GCTTGCCC	-0.329
ACGCTCCC	-0.165
ACACGGCA	-0.179
CAAACGCC	-0.158
GTCTACAC	-0.105
TCCAGAGA	-0.268
CGGGGCTC	-0.322
CTAAATCC	-0.16
AGTAAATG	0.174
TACGTTGA	0.227
ATCAAACG	0.0271
AACAGGAC	-0.144
AACAGCTC	-0.0736
ATTCACAA	0.214
CGCCAGAC	-0.201
GAAGTCAA	-0.0645
ACCCAGCG	-0.315
CAACAGAC	-0.00949

Series 2 — method: RNA Bind-n-Seq; form: RNA; medium: in vitro; tested at: 365 nM; baseline: no-protein control; direction: higher = stronger binding
Target: RNA binding protein fox-1 homolog 2, RRM domain, GST-SBP tag (RBFOX2, Homo sapiens, UniProt O43251-10, residues 100-194)
Setting: natural RNA segment, single round, ends assumed
Constant ends, left off below: GGGAGUUCUACAGUCCGACGAUC … UGGAAUUCUCGGGUGCCAA
Target sequence (chain): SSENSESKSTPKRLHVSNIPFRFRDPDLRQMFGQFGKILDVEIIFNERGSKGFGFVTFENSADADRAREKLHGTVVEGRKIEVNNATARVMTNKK
Oligonucleotide	RBNS enrichment (R)
UCUGCUUUCCUAUGACUUCUGCCUACUGGGUCUUGUUUUGUUCCUUGGAUCGAAACAGAACCGUUUACCCACCUUUACAAACUAGAGAAUAAAGAUUUGGUUUUAGAACU	0.215
CCUCGUGUUGAGGUUCCAGACUUAGAAACAGACCCCUCUGUACAGGGGGAUUGUGGUGAGUGAGAAUCAAGGCCACCUUGUGUGUUUUCUCACUCUCGAAUGCAAGUGGG	1.86
AUUCUGUGUGUUACAGAGAAGUACUGAAAAGUUAAGGACACUUGGGGGCUACUUUUUUCCCUCUAAACUAAAAAAGACAUUGGCUGAAUUAUAACUAGUUAGUUAUCACC	0.421
UGACGAGGAGAUGACGGGCGAAUACCCUGCUGCCCGGUGCCUUGAGGGGGUCUCAGGGCAGCAGCAUACAAGGUGGCAGCGGGUAACCCUGCCUUGUUCUGUCAUCCAGG	0.295
CCUAUCUCGCCCAGUGAAAUCACAGGAAGUUUAACGUAUCUCAGAGGCCUUUGAGUUCCCACUCAAUACCUCUCCCUCUUUACAGAAGAGAGGGGUGGGGGGAGCCUUGG	0.292
UCUGGCUUAGAUUGAAAAAUGGGCUUCCUAAUGGGUUAAAUCCUUUAAAACAAGGAGUUGUGGGGGAAGGGUGUCGUGCACUCCUAGAGAAAGGUACACAGUUGCCCGGU	1.05
CCAGUGUAAUGAAUGUUUGGAAAAAACUGGAGUUACAGGAAAAUGAAAUCUGACUAUCUGCUAGUUGCCAAAACCCAGAAACAUUCCUGUGUAAUGGUUAGUUGGGAAAG	0.506
UGGGGGGCUUGGGAGUGUUUGUCAUGUGUCCUCAGUCCCAUGGAUUUGAAAUGACCCCUCCUCGCUGUGAGAGUCCAGAGUCUCCUGAAGUUUGUCAAUGACUGAAAUGC	1.49
AAAGGGCCUGAGGCCUUAGGCUCCUUUAAGGUCUCUGUCUCAGGCAUGGUGCUCAAUAUCUUGGCCAAAUAAGUUACUUCCCUUGAAUAUCCAGGAAUUUUAAACUAAAG	0.342
ACAGAAAGACAGAUCACAGGUACAGGGAUGAGGACACCGGCUCUGACCAGGAGUUUGGGGAGCUUCAGGACAUUGCUGUGCUUUGGGGAUUCCCUCCACAUGCUGCACGC	2.25
UACCGGCUCUCUGUCACUCACCUUGAGAGUAGAGCAGACCCUGUUCUGCUCUGGGCUGUGAAGGGGUGGAGCAGGCAGUGGCCAGCUUUGCCCUUCCUGCUGUCUCUGUU	0.177
UGCCUGGUGUUACACAGAGCAUGGCGUGGCUGGUCUGGAGCGCAUAGCAAUAAUACUGUGCUGUGGUGACCUCCGCCCUUGCCUUGUGCAUGUCACACCUCCUUUUCCUU	0.567

Series 3 — method: protein-binding microarray; form: double-stranded DNA, one strand shown; medium: in vitro; tested at: 2200 nM top; setting: 60-bp whole probe; with: salmon DNA 0.4 mg/ml; baseline: random background probes; direction: higher = stronger binding; constant ends, left off below: GCCTAGCAC … GTCTTGATTCGCTTGACGCTGCTG
Target: Interferon regulatory factor 7, full length, phosphomimetic (IRF7, Homo sapiens, UniProt Q92985, residues 1-503, S471D/S472D/S475D/S476D/S477D/S483D/S484D/S487D)
Chain of UniProt Q92985 (whole entry, unmodified, looked up): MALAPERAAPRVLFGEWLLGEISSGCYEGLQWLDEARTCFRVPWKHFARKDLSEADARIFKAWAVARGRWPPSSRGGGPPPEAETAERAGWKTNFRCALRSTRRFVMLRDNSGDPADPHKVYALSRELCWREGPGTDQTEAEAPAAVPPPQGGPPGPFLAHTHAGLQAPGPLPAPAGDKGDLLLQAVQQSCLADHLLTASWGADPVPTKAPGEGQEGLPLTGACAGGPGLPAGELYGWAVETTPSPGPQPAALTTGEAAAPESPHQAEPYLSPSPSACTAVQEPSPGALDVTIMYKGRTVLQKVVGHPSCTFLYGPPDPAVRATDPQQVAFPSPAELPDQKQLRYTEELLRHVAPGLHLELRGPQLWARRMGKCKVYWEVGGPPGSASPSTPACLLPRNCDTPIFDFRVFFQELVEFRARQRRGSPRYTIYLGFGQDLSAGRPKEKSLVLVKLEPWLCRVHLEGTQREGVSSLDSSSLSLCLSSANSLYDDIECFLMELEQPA
Oligonucleotide	fitted relative affinity
GCCGGTATCGGTTTCGGGACGTGCTAG	4.4 z-score
TCAGGTTCCCTTTTCCTTTAGTGCTAG	3.9 z-score
TTAGCACTGGGGTTTCGGTTAGTGCTA	2.99 z-score
TTAGGTCTCGGTATCGGTAAGTGCTAG	0.636 z-score
TCAGGTCTCCCTTGAGGTTTGTGCTAG	0.199 z-score
GACGGTATCCTACTCCTGACGTGCTAG	0.993 z-score
TTTGGACTGCTTATCCTTTAGTGCTAG	0.912 z-score
TTTGGTTTCGGGTTTCGGTTAGTGCTA	11.9 z-score
TTAGGACTGGGACTGGTTTAGTGCTAG	-0.662 z-score
GACGATTCCAGTTTCGAGGCGTGCTAG	3.4 z-score
TCAACTCTTCTTTTGCTACTGTGCTAG	1.29 z-score
TCACCTCTCCCCTCTTGTACTGTGCTA	1.65 z-score
GACGGTATCGGTTTCGAGACGTGCTAG	3.32 z-score
GACGGTATCGGCATCGGGACGTGCTAG	-0.43 z-score
GACGAACTAGGGTTTCGAGACGTGCTA	0.674 z-score
GACGGACTGGGTATCGTGACGTGCTAG	-0.343 z-score
TTAATGTGTTCTTGGATTCGGTGCTAG	0.746 z-score
GACGAACTGGGGTTTCGAGACGTGCTA	1.37 z-score
AGTTTATTTATTTTTACATTGTGCTAG	1.11 z-score
AACGATCTCAGTATCGAGACGTGCTAG	-0.0417 z-score
GACGGACTGGGGCATCGGGACGTGCTA	-1.16 z-score
CTGTCATCATCGTTCCCAGCGTGCTAG	1.58 z-score
TTAGATTTCACTCTCGATTAGTGCTAG	1.54 z-score
TTAGATTTCGGGCATCGATTAGTGCTA	0.597 z-score

Series 4 — target: CCNB3, cyclin fold, Cln2 fusion (human); method: yeast growth competition, sequencing; medium: yeast; setting: strong parent motif; baseline: not given; direction: higher = stronger binding
Starting sequence: BRCA2 docking peptide (human); PSIKRNLLNEFDR; partner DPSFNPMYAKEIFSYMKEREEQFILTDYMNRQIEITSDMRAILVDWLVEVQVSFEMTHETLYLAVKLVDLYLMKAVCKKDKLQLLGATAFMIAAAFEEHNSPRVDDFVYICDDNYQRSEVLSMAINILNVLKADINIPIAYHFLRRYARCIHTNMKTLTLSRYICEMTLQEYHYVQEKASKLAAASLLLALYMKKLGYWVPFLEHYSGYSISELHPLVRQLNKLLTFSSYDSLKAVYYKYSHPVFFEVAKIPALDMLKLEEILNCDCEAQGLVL
Variant	normalised enrichment score
L7M	0.0374
F11S	-0.538
D12I	-0.487
D12V	1.1
L8F	0.729
N9R	1.36
K4P	0.37
N6A	0.384
D12R	0.527
P1D	0.899
I3D	-0.461
P1C	2.14
R5M	0.446
E10S	0.454
I3M	0.0516
K4Q	-0.104
N9P	1.15
N9S	1.4
N6T	2.41
P1N	1.59
D12E	1.32
N6S	1.11
D12S	0.779
R5H	-0.0304
P1L	1.01
